# Measurements gathered from unrelated publications.
# Lines come from different studies, so protocols differ. “And” joins repeats or separate records; there may be more than shown. Numbers after ± are the reported error.
SMILES,target or system,assay,test system,conditions,how to read,measurement,value
CCN(Cc1nc2c(N)nc3cc(-c4cc[nH]n4)ccc3c2[nH]1)C(C)=O,,"Luminex, refers to: G-CSF","cancer patients, serum","1200 µg monotherapy, first 24 h",baseline: baseline,fold change,4.8
C[C@H]1C[C@H]2CSC(N)=N[C@@]2(c2nc(NC(=O)c3ccc(OC(F)F)cn3)cs2)CO1,,refers to: Aβx-40,"healthy adults, plasma","160 mg single dose, 48 h post-dose",baseline: placebo,percent change from baseline,-56.5%
C[C@H](CS)C(=O)N1CCC[C@H]1C(=O)O,,,"mouse, unilateral ureteral obstruction, right kidney (control)",dose not given,,fibrosis area,0.6% and 1.07% and 0.91% and 0.66% and 1.16% and 0.82%
OC(CCN1CCCCC1)(c1ccccc1)C1CC2C=CC1C2 (stereo not drawn),,resting-state EEG,healthy elderly humans,"oral, 2 mg, eyes closed, LS mean",,EEG Beta3-power Fz-Cz,1.9 µV²
O=C(O)CNC(=O)Cc1ccccc1,,,"ventricular cardiomyocytes, C57BL/6 mouse","dose not given, 0.444 s",,sarcomere length,1.72 µm
C[C@@H](O)CCOC(=O)C[C@@H](C)O,,,human,"oral drink, dose not given, 120 min post dose, median, all participants",,plasma insulin,790 pg/mL
c1ccc(-c2n[nH]cc2-c2ccnc3ccccc23)nc1,,"kinase binding, competitor, MIB/MS competition, refers to: YAK1",Candida albicans cell lysate,100 nM,baseline: DMSO,log2 fold change,1.02
CC(C)NCC(O)c1ccc(O)c(O)c1 (stereo not drawn),,,"ventricular cardiomyocytes, C57BL/6 mouse","dose not given, 0.584 s",,sarcomere length,1.61 µm
N#Cc1ccc2c(c1)[C@H]1CCCN(C(=O)c3ccc4[nH]cnc4c3)[C@H]1C2,,,human clinical trial,"oral, 240 mg once daily, at last treatment",,ACTH level,14.3 pmol/L
OC[C@H]1O[C@@H](c2ccc(F)c(Cc3cc4ccccc4s3)c2)[C@H](O)[C@@H](O)[C@@H]1O,,continuous glucose monitoring,Japanese type 1 diabetes patients,"100 mg/day, day 14",baseline: baseline,time glucose at most 70 mg/dL,-0.15 ± 4.97 % change
O[C@H]1CCCN[C@@H]1CCCn1cnc2c(Cl)c(Cl)ccc21,,"ELISA, refers to: Pro-C6","healthy human volunteers, serum","intraduodenal, 100 mg twice daily, day 14, multiple ascending dose",,AUC(0-tau),117 ng·h/mL
CC(C)[N+](C)(CCOC(=O)C1c2ccccc2Oc2ccccc21)C(C)C,human iPSC-derived cardiomyocytes,"MyBP-C/MYH ratio, plate-normalised SD score",,"concentration not given, primary screen",direction not given,activity score,-3.8
COc1ccc(-c2cncc(N[C@@H](C)c3cccc(NC(=O)c4cncc(C)c4)c3)n2)cc1OC,,refers to: rno-miR-144-3p,"rat SU5416/hypoxia model, lung",dose not given,baseline: SU5416/hypoxia vehicle,fold change,0.629
Cn1cc(-c2ccc(-c3cncc(Cl)c3N3CCC4(CCNC4=O)CC3)cc2)cn1,COLO 205,"gene expression, microarray, refers to: KIAA0101 mRNA",,"concentration not given, 2 h",baseline: untreated cells,log2 fold change,-2.04
COC[C@@H](c1ccc(C(F)(F)F)cc1)N1CCN(C2(C)CCN(C(=O)c3c(C)ncnc3C)CC2)C[C@@H]1C,,,"HIV-1 infected patients, plasma","dose not given, week 48, with optimized background regimen",baseline: baseline,change in HIV-1 RNA,-2.1 log10 copies/mL
Cc1ccc(C(=O)OCc2ccc([C@@H](CN)C(=O)Nc3ccc4cnccc4c3)cc2)c(C)c1,,tonometry,"NZW rabbit, magnetic bead-induced ocular hypertension","ocular, 0.02%, 6 h",,IOP,35 mmHg
CN(C(=O)n1cnc(-c2ccc[n+]([O-])c2)c1)C1CCCCC1,,refers to: PEA,"human, plasma","2.5 mg once daily, day 10",,AUC(0-tau),139 ng·h/mL
N#Cc1ccn2c(-c3ccncc3)c(-c3ccc(F)cc3)nc2c1,,"kinase binding, competitor, MIB/MS competition, refers to: MKK2",Candida albicans cell lysate,1 µM,baseline: DMSO,log2 fold change,0.0453
C[C@@H](NC(=O)N1C(=O)[C@H](Cc2ccnc(N)c2)[C@H]1C(=O)O)C1CCCCC1,,,human,"iv infusion, 0.3 mg/kg/h, 24 h, unit not given",baseline: baseline,PT Emax,1.08
CSCCNc1nc(SCCC(F)(F)F)nc2c1ncn2[C@@H]1O[C@H](COP(=O)(O)OP(=O)(O)C(Cl)(Cl)P(=O)(O)O)[C@@H](O)[C@H]1O,,"ADP-induced platelet aggregation, LTA, >59% aggregation","human patients, platelet-rich plasma","dose not given, 1 h, with: ADP 20 µM",,patients with high reactivity,55%
NCC(=O)Nc1cncc(-c2nn3c(=O)cc(N4CCNCC4)nc3s2)c1,,"ADP-induced platelet aggregation, light transmission aggregometry","human, stable CAD on aspirin, ex vivo platelets","subcutaneous, 0.05 mg/kg, 30 min post-dose, mean value, with: ADP 20 µM",,inhibition,71.5%
CO[C@H]1/C=C/O[C@@]2(C)Oc3c(C)c(O)c4c(O)c(c(/C=N/N5CCN(C)CC5)c(O)c4c3C2=O)NC(=O)/C(C)=C\C=C\[C@H](C)[C@H](O)[C@@H](C)[C@@H](O)[C@@H](C)[C@H](OC(C)=O)[C@@H]1C,human iPSC-derived cardiomyocytes,"MyBP-C/MYH ratio, plate-normalised SD score",,"concentration not given, primary screen",direction not given,activity score,3.4
CCCn1cc(C)c2c(=O)[nH]c(-c3cc(S(=O)(=O)N4CCN(CC)CC4)ccc3OCC)nc21,,,supine,median,,time to maximum SBP change,1.97 h
CCO[C@H]1CCN(Cc2c(OC)cc(C)c3[nH]ccc23)[C@H](c2ccc(C(=O)O)cc2)C1,,,"PNH patients, blood","oral, 50 mg then 200 mg, week 12, mean absolute change",baseline: baseline,C3d-positive type III RBCs,-2%
CC(c1cc2ccccc2s1)N(O)C(N)=O (stereo not drawn),,,human blood,"3 µM, with: A23187",,4-HDHA level,34 ± 6 pg/mL
CC(C)C[C@H](NC(=O)C[C@H](O)[C@H](CC(C)C)NC(=O)[C@H](Cc1c[nH]cn1)NC(=O)CNC(=O)[C@@H](NC(=O)[C@H](C)NC(=O)[C@H](Cc1c[nH]c2ccccc12)NC(=O)[C@H](CCC(N)=O)NC(=O)[C@@H](Cc1ccccc1)NC(=O)COCCOCCNC(=O)CCC(C(=O)O)N1CCN(CC(=O)O)CCN(CC(=O)O)CCN(CC(=O)O)CC1)C(C)C)C(N)=O (stereo partly drawn) [lutetium-177 labelled],,,"BALB/c nu/nu mice, salivary glands","50 pmol, 1 h, with: PA 300 µg",,tissue uptake,0.3 ± 0.1 %ID/g
O=C1N(Cc2ccccc2Cl)c2ccccc2C12NN=C(c1ccccc1)S2 (stereo not drawn),,,"AB12 tumour, mouse","intravenous, 405.4 mg/kg total, subcutaneous tumour",baseline: vehicle,T/C,85%
CN(C)C(=O)Oc1cccc([N+](C)(C)C)c1,,neuromuscular block reversal,rat,"dose not given, 9.5 (unit not given), with: cisatracurium",baseline: T1 twitch,train-of-four ratio,73
CC(C)C[C@@H](NC(=O)[C@H](C)NC(=O)CNC(=O)[C@@H](NC=O)C(C)C)C(=O)N[C@@H](C)C(=O)N[C@@H](C(=O)N[C@H](C(=O)N[C@@H](C(=O)N[C@@H](Cc1c[nH]c2ccccc12)C(=O)N[C@H](CC(C)C)C(=O)N[C@@H](Cc1ccc2[nH]ccc2c1)C(=O)N[C@H](CC(C)C)C(=O)N[C@@H](Cc1c[nH]c2ccccc12)C(=O)N[C@@H](C(=O)N[C@@H](Cc1c[nH]c2ccccc12)C(=O)NCCO)C(C)C)[C@H](C)O)C(C)C)C(C)C,,"H+/Na+ transport, pyranine pH-gradient",EYPC/cholesterol LUVs 2:1,,,EC50,114 ± 22.7 nM
COC(=O)CCc1ccc(OCC(O)CNC(C)C)cc1 (stereo not drawn),,,healthy male humans,"concentration not given, 5 min, with: saline",,systolic blood pressure,108 mm Hg

# A few entries again:
SMILES,target or system,assay,test system,conditions,how to read,measurement,value
CC(C)[N+](C)(CCOC(=O)C1c2ccccc2Oc2ccccc21)C(C)C,human iPSC-derived cardiomyocytes,"MyBP-C/MYH ratio, plate-normalised SD score",,"concentration not given, primary screen",direction not given,activity score,-3.8
CCO[C@H]1CCN(Cc2c(OC)cc(C)c3[nH]ccc23)[C@H](c2ccc(C(=O)O)cc2)C1,,,"PNH patients, blood","oral, 50 mg then 200 mg, week 12, mean absolute change",baseline: baseline,C3d-positive type III RBCs,-2%
